Measurements collected from several papers.
Parts stem from different laboratories: compare values within a part only. Positions count from the first letter of the parent shown.

Block 1
Target: Ras GTPase-activating protein-binding protein 1, full length (G3BP1, Homo sapiens, UniProt Q13283)
UniProt Q13283, sequence (whole entry, looked up): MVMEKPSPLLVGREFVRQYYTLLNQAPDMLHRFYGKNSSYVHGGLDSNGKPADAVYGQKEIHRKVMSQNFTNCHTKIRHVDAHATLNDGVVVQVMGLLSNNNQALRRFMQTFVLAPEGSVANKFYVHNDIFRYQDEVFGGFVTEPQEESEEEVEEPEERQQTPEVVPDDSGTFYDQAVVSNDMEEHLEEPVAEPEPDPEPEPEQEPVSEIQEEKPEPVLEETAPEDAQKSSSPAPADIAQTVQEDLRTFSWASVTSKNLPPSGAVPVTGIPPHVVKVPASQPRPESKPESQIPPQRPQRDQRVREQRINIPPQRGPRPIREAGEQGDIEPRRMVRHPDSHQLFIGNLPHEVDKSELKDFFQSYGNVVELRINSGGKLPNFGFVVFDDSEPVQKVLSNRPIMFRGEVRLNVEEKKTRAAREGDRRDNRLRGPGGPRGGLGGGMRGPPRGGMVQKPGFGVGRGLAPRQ
Method: RNA Bind-n-Seq
Form: RNA
Sample: in vitro
Tested at: 200 nM
Notes: whole 134-nt RNA, ends assumed
Together with: 150 mM LiCl
Reference: input library
Reading: higher = stronger binding
Endpoint: log2 enrichment
Library: 7-deaza-guanosine replaces G
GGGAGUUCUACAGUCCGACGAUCCUGUGCUACACAUCGUAUGUACCGAAUCAAAUUUUUUUAAAUUUUUUUAAACCCCCCCAAAAAAGUAUUAUGUUACGCCGUUCGGAUCUGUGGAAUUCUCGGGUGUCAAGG: 1.04
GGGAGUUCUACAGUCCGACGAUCCACAGACAACACGCACCCACACAGACACAGAGGGAAGGGGUUGGGAUGGGGACAGGGUGCACAGCAGGGCGGGGUAGGACCGCAGCCCCUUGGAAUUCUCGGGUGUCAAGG: -0.555
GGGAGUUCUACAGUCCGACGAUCACCAUGCGGGUGGGCAUCUUUGGGAAGUGGGGCAAGGGGGGGAUAGGGAGGGGGGUAACACUUUGGGAACAGGUGGUCCCAGGUCGUUUCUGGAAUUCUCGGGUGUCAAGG: 0.269
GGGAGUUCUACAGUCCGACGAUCCACAGACAACACGCACCCACACAGACACAGAGGGAAGGGGUUGGGAUAGGGACAGGGUGCACAGCAGGGCGGGGUAGGACCCCAGCCCCUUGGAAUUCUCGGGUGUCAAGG: 0.672
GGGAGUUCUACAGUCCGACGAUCUCCUGUGCUACACAUCGUAUGUACCGAAUCGGUUUUUUGGGUUUUUUGGGUUUUUUGGGAAAGUAUUAUGUUACGCCGUUCGGAUCUGCAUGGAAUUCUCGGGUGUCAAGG: 0.268
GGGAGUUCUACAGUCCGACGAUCUGGGAGGUGGAUUUUGUUUAUUUUUUUAGCUCAUUUCCAGGGGUGGGAAUUUUUUUUUAAUAUGUGUCAUGAAUAAAGCUGUUUUUGAAAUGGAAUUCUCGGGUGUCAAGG: -0.177
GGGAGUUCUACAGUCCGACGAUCCCUGUGCUACACAUCGUAUGUACCGAAUCGGGGUUUUUUUGGGGUUUUUGGGGAAAGGGGAAAGUAUUAUGUUACGCCGUUCGGAUCUGCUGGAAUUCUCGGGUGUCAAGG: 0.654
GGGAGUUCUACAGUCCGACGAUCUCCUGCCAACCUCUCUUAAUGCUCUGAGAGCCUCUGGUGUUGACAUAGAAGAGGAAACGGAGAAGAACCUGGAAAAGGUACAGACUAUCAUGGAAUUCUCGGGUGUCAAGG: -2.37
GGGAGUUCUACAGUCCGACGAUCUCAGAAGGUCUUUUAAGUCUGACCACCCAGCUUGUCAAGGAAAAACUCUCCACCUGUGAAGCAGAGGACAUCGCCACCUAUGAGCAGAAUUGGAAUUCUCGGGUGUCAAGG: 0.845
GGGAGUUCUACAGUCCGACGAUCACCAUGCAGGUGGGCAUCUCUGGGAAGUGGGGCAAGGGGGGGAUAGGGAGGGGGGUAACACUUUGGGAACAGGUGGUCCCAGGUCGUUUCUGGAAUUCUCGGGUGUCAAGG: 0.0371
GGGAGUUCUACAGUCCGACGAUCGUCCUGUGCUACACAUCGUAUGUACCGAAUCGGGGAAAAAGGGGAAAGGGGAAAGGGGAAAGUAUUAUGUUACGCCGUUCGGAUCUGCACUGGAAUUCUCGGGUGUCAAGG: 0.399

Block 2
Target: RNA binding protein fox-1 homolog 2, RRM domain, GST-SBP tag (RBFOX2, Homo sapiens, UniProt O43251-10, residues 100-194)
Method: RNA Bind-n-Seq
Form: RNA
Sample: in vitro
Tested at: 365 nM
Notes: natural RNA segment, single round, ends assumed
Reference: no-protein control
Reading: higher = stronger binding
Endpoint: RBNS enrichment (R)
Construct (chain): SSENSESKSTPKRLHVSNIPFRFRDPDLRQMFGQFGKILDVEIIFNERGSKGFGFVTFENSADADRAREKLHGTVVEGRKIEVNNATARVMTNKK
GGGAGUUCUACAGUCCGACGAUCGCAAUGAGGUCGGGUUUUAUAUGCAACUUAUUGUAUCUGAAUUCCUGUAGCACACCUCAUAGGUAUGAUUUUUUUAAAUUAAAGAAUUCAGAAUAAACAUUUUUUGAUCCUGGAAUUCUCGGGUGCCAA: 0.852
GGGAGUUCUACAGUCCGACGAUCCACAUGCGGCUCAAGUCACUCAGAGGCUGUUGCAUUUCAGGGCUAUGUUGGUCCUUUGUUUACCUCCUAAACCACAGCUGUUUGUGUUUCACAUAUGUUGUGAAUUUUCCUGGAAUUCUCGGGUGCCAA: 0.273
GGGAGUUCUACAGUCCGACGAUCAGUAGCCAAAUCUUUUUCUAAUAAACUCAAUGUUCAGCUCCUCUGUGUUUAAGUUCUCGUAUCCUUGGUGGACACGGACACUAAGAAUCAACUAUGUAGUUGAUUUUUUUUGGAAUUCUCGGGUGCCAA: 0.476
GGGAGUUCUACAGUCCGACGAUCAGUGCUUUUAACAAACUUAAGCUUCUGCCCUGCCAAGGGAAUUAAUGUUAUCUUGUGAAAGGUGUUGCUGUUUGAAUUGAUGAGAAAUGGAAGAUGAGAACUCCCUAAGAUGGAAUUCUCGGGUGCCAA: 0.359
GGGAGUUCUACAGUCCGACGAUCGCCAUUCUUGAGUUUGCCAGCUCCAUCCCAGGCUCCAAGUGCUGUGACUGGUGACUCUCAGGCAGGCAUGACAAAUUGCUGGCCUCCAUUCUUGGCCUUCCUAAUCACUCUGGAAUUCUCGGGUGCCAA: 0.57
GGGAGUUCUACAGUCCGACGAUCCUGGCUUCUUCCAGAGACAUGGGCUGUGUUAUUGGAGUCGUGGGCCUCUUCACUUCCCCGGCACCCUUGUAUCCCCACAGCAGUACUGAGGAGCACGGACGCCUCUGUGAUGGAAUUCUCGGGUGCCAA: 0.859
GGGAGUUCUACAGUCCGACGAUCAGAGAGAUUGAAACAGAAUAAACGGGCUGUUCUUGAAGAAGCAAAACCAGAAUAUGCAUUACUUUGGUUUAAUACUUAGUGCUAACAUUGAAACUGUUGGUGGUGAUGGAUGGAAUUCUCGGGUGCCAA: 0.504
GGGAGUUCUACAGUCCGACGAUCUUUUUAUGUACAUCAUUAAUCUUCUGACAAGAAGCUGAAGUAGCACCACAGUCCAUAAUAUAUCAGGAUCUGGCAAGCUUAAGGAACCCAGCUCUUAGAAAUUUCUCUUCUGGAAUUCUCGGGUGCCAA: 0.364
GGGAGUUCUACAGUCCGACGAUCAGUUCUCUUUGGAAAAAAACUACCACUGUGGUCUUAAAAGGGAACAAAAUAUACCAUAGGCUAAAACUAAGGCUUUCACUCUAGAAUGCAAAGCUGUUUUGCAGCUGUUUUGGAAUUCUCGGGUGCCAA: 0.29
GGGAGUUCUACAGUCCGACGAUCGUGGCCCGUGCAGUCUGGGGUCCACAGCUCUUCCUCUCCUUCCUGUGCUCCCUGCCUUGCCUAGGAUGAAGCCUCCAGCGCUGCUCCCUGGCCCUGUUCCUGGCAUAUGGUGGAAUUCUCGGGUGCCAA: 0.755
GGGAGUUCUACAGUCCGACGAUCCCACCCGGAGCGCGUGCUGUUGAUGAUCUGAUCUCUCGCCUGGACCCCUCAUCCCUGCCCUGCCACUUUGCAUGAUUCAAGUUCGACCUGGCCAUGCAUUGCCCAAGCGUUGGAAUUCUCGGGUGCCAA: 0.651
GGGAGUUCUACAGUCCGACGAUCUCCUGGGAUCCGGGAGUCCAUCCCGGCCCAGCACCCCCAGCAUCCCCGUGUAUGGCCCCCCUGCACCUCCUUGUCUCAUCCCCGAAGAUCCGUCCCCCUGGCCCCUCAGUUGGAAUUCUCGGGUGCCAA: 4.19

Block 3
Target: ABI1, truncated, D143A, DHFR fusion (Arabidopsis thaliana)
Method: DHFR PCA, deep sequencing
Sample: yeast
Notes: methotrexate growth selection, single substitutions
Together with: (+)-ABA 710 µM
Reference: wild-type fitted maximum
Reading: higher = stronger binding
Endpoint: relative binding score
Starting sequence: PYL1, truncated, DHFR fusion (Arabidopsis thaliana); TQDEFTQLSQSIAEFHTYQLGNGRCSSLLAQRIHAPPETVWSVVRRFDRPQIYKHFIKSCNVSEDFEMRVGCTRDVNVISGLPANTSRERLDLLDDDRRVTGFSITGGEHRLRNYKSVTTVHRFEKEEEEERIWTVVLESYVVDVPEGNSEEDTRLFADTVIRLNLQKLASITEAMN; partner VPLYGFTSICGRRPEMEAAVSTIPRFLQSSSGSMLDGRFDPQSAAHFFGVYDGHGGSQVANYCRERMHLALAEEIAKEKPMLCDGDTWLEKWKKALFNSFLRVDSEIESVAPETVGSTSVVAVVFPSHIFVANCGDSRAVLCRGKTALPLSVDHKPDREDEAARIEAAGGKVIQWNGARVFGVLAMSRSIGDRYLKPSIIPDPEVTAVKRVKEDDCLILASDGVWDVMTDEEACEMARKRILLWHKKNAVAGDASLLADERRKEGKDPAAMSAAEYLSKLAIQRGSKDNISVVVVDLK
R132P: 112%
E151R: 99.7%
R113H: 106%
K126L: 107%
D92F: 75.8%
V143F: 43.6%
T120F: 5.93%
M68H: 100%
S104K: 70.2%
L94Q: 77.1%
L164I: 101%
S140H: 26.6%
L93C: 112%
T160W: 91%
F47A: 19.6%
E127P: 114%
R111Q: 84.5%
V118R: 101%
F66V: 99.3%
R123F: 94.3%
R45F: 0.722%
K126F: 105%
V145Y: 59.5%
N61H: 98.5%
D96T: 73.8%

Block 4
Target: Histone acetyltransferase KAT6A, winged helix 1, GST fusion (KAT6A, Homo sapiens, UniProt Q92794, residues 1-85)
Method: protein binding microarray
Form: double-stranded DNA, one strand shown
Sample: in vitro
Tested at: not given
Notes: 8-mer, flanks averaged, mean of 2 arrays, mostly near background
Reference: not given
Reading: higher = stronger binding
Endpoint: E-score
Target sequence (chain): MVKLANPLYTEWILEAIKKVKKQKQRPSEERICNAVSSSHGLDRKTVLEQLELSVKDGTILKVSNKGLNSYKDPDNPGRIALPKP
ACCTCCTA: -0.0746
AACCCAGG: -0.159
ACCGTTTC: 0.104
ACTCTTTC: -0.0917
CAAGTCTG: -0.288
TGTGATAA: -0.166
GAGGGCTA: -0.121
GACCTCAC: -0.0172
CATTGATC: -0.178
CCTACCGA: -0.0243
GGAGCCCA: -0.131
GCCTGGGA: -0.0463
TAGTTGAA: -0.0488
CTGTGGTC: -0.0901
GATCTCTA: -0.0469
ACATAATC: -0.0236
AGGCTCAC: -0.0012
CCGTAAGA: 0.241
CATACTAG: -0.0858
GCTTTCAC: -0.0847
TACGAATA: -0.308

Block 5
Target: CCNE1, cyclin fold, Cln2 fusion (human)
Method: yeast growth competition, sequencing
Sample: yeast
Notes: weak parent motif
Reference: not given
Reading: higher = stronger binding
Endpoint: normalised enrichment score
Starting sequence: RB1 docking peptide (human); PKPLKKLRFDIEG
F9I: -0.0397
K6Q: 0.0479
K6S: 0.141
P3D: 0.719
R8L: -0.662
P3C: 2.05
F9Y: -0.825
E12W: 1.38
K5T: 0.406
L4V: -0.2
P1Y: 0.123
G13P: 0.263
D10R: 1.45
G13F: 0.704
I11Q: -0.951
P1K: 0.324
K2W: 0.154

Repeated from above (block 5):
F9I: -0.0397
K6Q: 0.0479
K6S: 0.141
P3D: 0.719
R8L: -0.662
P3C: 2.05
F9Y: -0.825
E12W: 1.38
K5T: 0.406
